Measured values of several laboratories.
Numbers after ± are the reported error.

`CCN(CC)c1ccc2c(-c3ccccc3C(=O)OCCC[18F])c3ccc(=[N+](CC)CC)cc-3oc2c1` gave a tissue uptake of 2.53 ± 0.67 %ID/g (rat, gut; dose not given, 60 min post injection).
The tissue uptake of `O=C(c1ccc(F)cc1)C1CCN(C2Cc3c(cccc3OCC[18F])CC2O)CC1` (single isomer, unassigned; (-)) is reported as 0.883 ± 0.068 %ID/g (Sprague-Dawley rat, male, kidney; intravenous, dose not given, 30 min).
For `COc1cc2ccnc(Cc3ccc(O[11CH3])c(OC)c3)c2cc1OC`, the tissue uptake was 0.104 ± 0.017 %ID/g (Sprague-Dawley rats, lung; intravenous, 0.5 h).
The tissue uptake of `O=C(O)CCCN1CCN2CCN(CC1)CC(=O)[O][Al]([18F])[O]C(=O)C2` is reported as 0.4 ± 0.1 %ID (Sprague-Dawley rat, renal pedicle ligation, kidney; 60 min).
`CCNc1cc2[o+]c3cc(NCC)c(C)cc3c(-c3ccccc3C(=O)OCCOCC[18F])c2cc1C` has a tissue uptake of 1.3 %ID/g (rat, heart; 15 min).
`CCN(CC)c1ccc2c(-c3ccccc3C(=O)OCCOCC[18F])c3ccc(=[N+](CC)CC)cc-3oc2c1` gave a tissue uptake of 0.36 ± 0.04 %ID/g (rat, skin; 60 min).
For `COc1ccc(NC(=O)Cn2c(=O)c3ccccc3n(CC(=O)Nc3cc([125I])c(OC)cc3OC)c2=O)cc1`, the tissue uptake was 0.53 ± 0.09 %ID/g (Wistar rat (normal), thyroid; intravenous, 0.5 h).
`CN(C)c1ccc(C(=O)NCCCCN2CCN(c3ccccc3O[11CH3])CC2)cc1` has a tissue uptake of 0.062 ± 0.012 %ID/g (male Sprague Dawley rat, muscle; iv, 5 min; baseline: untreated).

Excerpt of the above:
The tissue uptake of `O=C(c1ccc(F)cc1)C1CCN(C2Cc3c(cccc3OCC[18F])CC2O)CC1` (single isomer, unassigned; (-)) is reported as 0.883 ± 0.068 %ID/g (Sprague-Dawley rat, male, kidney; intravenous, dose not given, 30 min).
